Measured values from different studies.
Protocols differ between the studies behind these lines. Values joined by “and” are separate records of one study, mostly repeats; a detail may differ. Numbers after ± are the reported error.

For `O=C(Nc1ccccc1)C1CCN(C(=O)Oc2cccnc2)CC1`, “adverse event incidence” read 13% (measured: Diarrhea; healthy female human; concentration not given, all doses pooled).
With `O=C(O)CCCOc1ccc(F)cc1-c1cc(-c2ccccc2C(F)(F)F)n(-c2ccccc2)n1` the haemoglobin was 14.4 g/dL and 15.1 g/dL and 15 g/dL and 14.6 g/dL and 15.4 g/dL (female Crl:CD(SD) rats; intravenous, 25 µg/kg, 14 d).
For `O=C(Nc1ccccc1)C1CCN(C(=O)Oc2cccnc2)CC1`, “change in calmness score” read 14 (Bond-Lader VAS; healthy women; 60 mg; baseline: pre-dose baseline, direction not given).
`COc1cc2c(Oc3ccc4[nH]c(C)cc4c3F)ccnc2cc1OCC1(N)CC1`: “grade 1 or 2 Vomiting” 50% (paediatric recurrent refractory sarcoma; 10 mg).
With `CCc1ccc(CC/C=C/c2ccc3c(c2)C(=O)CC3)cc1` the MCV was 64.8 fL (Sprague-Dawley rat, male, blood; oral, 30 mg/kg/day, 14 days).
`Brc1ccc(Oc2cc(Br)c(Br)cc2Br)c(Br)c1`: “dose fraction in skim milk” 8.73% (whole cow milk; 20 nM nominal).
For `C[C@]1(CO)Cc2ncn(-c3ccc(C#N)c(Cl)c3)c2C(=O)O1`, “half-life at steady state” read 5.4 h (human, plasma; 40 mg once daily, fasted).
For `CO[C@H]1C[C@@H]2CC[C@@H](C)[C@@](O)(O2)C(=O)C(=O)N2CCCC[C@H]2C(=O)O[C@H]([C@H](C)C[C@@H]2CC[C@@H](OC(=O)NCCOCCOCCOCCOCCOCCOCCOCCOCCC(=O)N3CCc4cc(Cn5nc(-c6ccc7oc(N)nc7c6)c6c(N)ncnc65)ccc4C3)[C@H](OC)C2)C[C@@H](O)[C@H](C)/C=C(\C)[C@@H](O)[C@@H](OC)C(=O)[C@H](C)C[C@H](C)/C=C/C=C/C=C/1C`, “AE leading to dose interruption” read 100% (patients with advanced solid tumours; intravenous, 16 mg weekly, any grade).
The hemolysis of `CC(C)C[C@H](NC(=O)[C@H](C)NC(=O)[C@@H](NC(=O)[C@H](CCCNC(=N)N)NC(=O)[C@H](CC(C)C)NC(=O)[C@H](Cc1c[nH]c2ccccc12)NC(=O)[C@@H]1CCCN1C(=O)[C@@H](N)CCCCN)C(C)C)C(=O)N[C@@H](CS)C(=O)N1CCC[C@H]1C(=O)NCC(=O)O` is reported as 0.1% and 1.01% and 0.78% (sheep red blood cells; 8 µM, 1 h, 37 °C).
With `COc1cccc(Oc2ccccc2NC(=O)CNC(=O)c2cccc3ccccc23)c1` the unconjugated bilirubin was 0.1 mg/dL (esterase-deficient SCID mice, male; oral, 100 mg/kg/day, 14 days, toxicity study).
Under “incidence of mild AEs”, `C[C@@H](NC(=O)N1C(=O)[C@H](Cc2ccnc(N)c2)[C@H]1C(=O)O)C1CCCCC1` is recorded as 62.5% (healthy adult Chinese volunteers; continuous intravenous infusion, 2.25 mg/kg/h, 5-day infusion, CTCAE 5.0 grading).
Under “body weight gain”, `Oc1ccc(CSCc2ccc(O)cc2)cc1` is recorded as 6.42 ± 2.01 g (ICR mice male; oral, 1500 mg/kg, day 15, acute toxicity; baseline: day 1).
`CCN1CCN(Cc2ccc(Nc3ncc(F)c(-c4cc(F)c5nc6n(c5c4)[C@H](C)CCC6)n3)nc2)CC1` — result for “TEAEs leading to dose interruption”: 25% (Phase Ia dose escalation; patients with advanced solid tumours; dose not given, monotherapy; baseline: patients).

A few entries again:
Under “body weight gain”, `Oc1ccc(CSCc2ccc(O)cc2)cc1` is recorded as 6.42 ± 2.01 g (ICR mice male; oral, 1500 mg/kg, day 15, acute toxicity; baseline: day 1).
`CCN1CCN(Cc2ccc(Nc3ncc(F)c(-c4cc(F)c5nc6n(c5c4)[C@H](C)CCC6)n3)nc2)CC1` — result for “TEAEs leading to dose interruption”: 25% (Phase Ia dose escalation; patients with advanced solid tumours; dose not given, monotherapy; baseline: patients).
